Measurements gathered from unrelated publications.
Protocols differ between the studies behind these lines. Numbers after ± are the reported error.
Sequence of UniProt P16257 (whole entry, looked up): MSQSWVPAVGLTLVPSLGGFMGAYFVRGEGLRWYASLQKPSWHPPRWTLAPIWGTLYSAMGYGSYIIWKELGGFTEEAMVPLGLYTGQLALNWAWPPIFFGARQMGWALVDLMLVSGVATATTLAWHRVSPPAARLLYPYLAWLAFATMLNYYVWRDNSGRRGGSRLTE
Sequence of UniProt Q96SW2 (whole entry, looked up): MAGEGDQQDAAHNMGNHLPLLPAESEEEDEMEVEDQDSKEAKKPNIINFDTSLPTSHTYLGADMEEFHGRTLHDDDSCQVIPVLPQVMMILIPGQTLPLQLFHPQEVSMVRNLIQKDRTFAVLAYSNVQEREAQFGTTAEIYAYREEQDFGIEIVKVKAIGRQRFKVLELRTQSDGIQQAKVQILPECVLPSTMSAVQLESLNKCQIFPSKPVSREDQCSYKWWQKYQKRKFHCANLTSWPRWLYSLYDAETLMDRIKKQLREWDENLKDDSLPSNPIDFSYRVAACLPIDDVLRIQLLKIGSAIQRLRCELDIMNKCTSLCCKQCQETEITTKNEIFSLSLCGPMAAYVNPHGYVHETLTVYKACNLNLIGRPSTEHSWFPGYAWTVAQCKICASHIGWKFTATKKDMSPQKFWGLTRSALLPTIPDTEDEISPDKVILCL
Sequence of UniProt Q920B6 (whole entry, looked up): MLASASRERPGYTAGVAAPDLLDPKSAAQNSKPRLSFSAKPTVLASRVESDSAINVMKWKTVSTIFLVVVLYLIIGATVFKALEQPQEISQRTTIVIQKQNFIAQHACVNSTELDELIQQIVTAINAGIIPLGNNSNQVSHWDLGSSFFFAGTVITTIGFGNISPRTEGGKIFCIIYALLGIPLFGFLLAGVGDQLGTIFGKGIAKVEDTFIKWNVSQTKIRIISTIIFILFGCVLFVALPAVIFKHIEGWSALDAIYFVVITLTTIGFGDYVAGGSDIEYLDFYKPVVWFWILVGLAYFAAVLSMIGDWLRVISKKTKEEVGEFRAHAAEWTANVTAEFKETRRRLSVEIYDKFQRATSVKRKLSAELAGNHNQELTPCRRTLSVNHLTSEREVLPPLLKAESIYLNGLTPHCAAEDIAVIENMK
Sequence of UniProt P61073 (whole entry, looked up): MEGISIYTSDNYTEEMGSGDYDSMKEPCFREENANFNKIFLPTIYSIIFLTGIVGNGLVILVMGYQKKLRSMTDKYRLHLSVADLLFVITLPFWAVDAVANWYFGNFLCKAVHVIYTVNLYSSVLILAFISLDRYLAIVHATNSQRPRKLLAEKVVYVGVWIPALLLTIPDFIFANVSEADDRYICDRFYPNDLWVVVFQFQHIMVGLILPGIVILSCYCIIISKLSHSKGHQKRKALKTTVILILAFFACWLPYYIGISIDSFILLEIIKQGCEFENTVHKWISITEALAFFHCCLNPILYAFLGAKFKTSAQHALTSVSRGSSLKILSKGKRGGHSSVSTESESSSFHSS
Sequence of UniProt P48729 (whole entry, looked up): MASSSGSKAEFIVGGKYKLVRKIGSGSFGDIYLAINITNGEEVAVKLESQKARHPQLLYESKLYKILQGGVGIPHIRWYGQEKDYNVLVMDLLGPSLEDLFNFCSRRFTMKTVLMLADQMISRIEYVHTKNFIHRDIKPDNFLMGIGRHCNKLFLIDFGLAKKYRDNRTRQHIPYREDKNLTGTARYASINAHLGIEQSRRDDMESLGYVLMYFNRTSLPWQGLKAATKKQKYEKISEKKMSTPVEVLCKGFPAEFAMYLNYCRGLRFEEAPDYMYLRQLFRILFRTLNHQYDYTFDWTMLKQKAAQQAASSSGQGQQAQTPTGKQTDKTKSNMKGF
Sequence of UniProt O66465 (whole entry, unmodified, looked up): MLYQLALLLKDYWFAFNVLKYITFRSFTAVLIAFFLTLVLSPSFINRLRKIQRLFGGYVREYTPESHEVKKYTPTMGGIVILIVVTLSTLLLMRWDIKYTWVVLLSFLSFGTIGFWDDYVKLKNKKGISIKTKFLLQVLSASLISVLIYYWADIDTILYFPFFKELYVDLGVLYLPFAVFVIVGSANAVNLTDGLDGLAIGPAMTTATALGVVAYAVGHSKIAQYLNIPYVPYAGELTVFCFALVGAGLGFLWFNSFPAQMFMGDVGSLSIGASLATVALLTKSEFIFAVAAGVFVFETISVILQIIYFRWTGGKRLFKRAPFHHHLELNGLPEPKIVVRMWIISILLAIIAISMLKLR
Sequence of UniProt Q6W5P4 (whole entry, unmodified, looked up): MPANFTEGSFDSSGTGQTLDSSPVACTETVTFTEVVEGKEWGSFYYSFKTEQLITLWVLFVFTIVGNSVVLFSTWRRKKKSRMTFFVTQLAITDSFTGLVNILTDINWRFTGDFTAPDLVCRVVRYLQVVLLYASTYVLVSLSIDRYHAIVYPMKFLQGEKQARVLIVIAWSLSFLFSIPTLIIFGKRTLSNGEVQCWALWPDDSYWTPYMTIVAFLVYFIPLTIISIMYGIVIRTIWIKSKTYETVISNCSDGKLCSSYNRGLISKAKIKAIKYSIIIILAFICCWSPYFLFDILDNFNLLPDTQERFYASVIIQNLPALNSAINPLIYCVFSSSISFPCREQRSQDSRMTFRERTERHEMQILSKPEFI
Sequence of UniProt P28907 (whole entry, looked up): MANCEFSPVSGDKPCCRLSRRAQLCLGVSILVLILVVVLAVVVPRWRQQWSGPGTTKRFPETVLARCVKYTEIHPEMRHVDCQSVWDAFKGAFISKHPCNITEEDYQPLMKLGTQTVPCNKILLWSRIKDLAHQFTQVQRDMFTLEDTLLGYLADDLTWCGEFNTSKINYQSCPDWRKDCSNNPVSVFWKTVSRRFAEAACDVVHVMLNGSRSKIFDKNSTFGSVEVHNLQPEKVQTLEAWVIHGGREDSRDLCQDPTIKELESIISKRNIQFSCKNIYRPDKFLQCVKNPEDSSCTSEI
Sequence of UniProt Q16853 (whole entry, looked up): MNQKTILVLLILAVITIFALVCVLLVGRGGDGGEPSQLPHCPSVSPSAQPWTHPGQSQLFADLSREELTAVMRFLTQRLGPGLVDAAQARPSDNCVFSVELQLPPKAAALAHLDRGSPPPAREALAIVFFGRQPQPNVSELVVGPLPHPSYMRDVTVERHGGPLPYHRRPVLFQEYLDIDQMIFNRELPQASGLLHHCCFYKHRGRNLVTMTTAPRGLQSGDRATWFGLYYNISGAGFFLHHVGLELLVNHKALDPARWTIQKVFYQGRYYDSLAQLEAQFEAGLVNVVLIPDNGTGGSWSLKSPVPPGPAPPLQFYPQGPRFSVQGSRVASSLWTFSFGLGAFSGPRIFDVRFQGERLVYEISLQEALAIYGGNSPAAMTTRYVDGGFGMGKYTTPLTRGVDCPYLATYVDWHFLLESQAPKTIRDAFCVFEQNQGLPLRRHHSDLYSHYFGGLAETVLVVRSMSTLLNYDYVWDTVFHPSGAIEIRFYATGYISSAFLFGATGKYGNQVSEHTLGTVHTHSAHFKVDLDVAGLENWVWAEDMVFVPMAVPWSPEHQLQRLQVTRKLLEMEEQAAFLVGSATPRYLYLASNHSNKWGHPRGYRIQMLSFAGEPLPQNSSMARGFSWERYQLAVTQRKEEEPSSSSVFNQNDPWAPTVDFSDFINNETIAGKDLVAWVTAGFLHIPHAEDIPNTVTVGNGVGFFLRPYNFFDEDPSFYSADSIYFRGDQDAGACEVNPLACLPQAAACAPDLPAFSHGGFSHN

CCc1cc(C)nc2c(CC(=O)N(CC)CC)c(-c3ccc(OCC[18F])cc3)nn12  k4 rate constant (Tspo (Rattus norvegicus, UniProt P16257); two-tissue compartment model; rat C6 glioma model, brain; 60 min dynamic PET): 0.103 ± 0.016 min⁻¹
CC(C)CC(NC(=O)C(NC(=O)NC(C(=O)O)C(C)C)C1CCNC(=N)N1)C(=O)NCCCNC(C(=O)O)C(OC1OC(CN)C(O)C1O)C1OC(n2ccc(=O)[nH]c2=O)C(O)C1O (centres unmarked)  ΔH (mraY (Aquifex aeolicus, UniProt O66465, Q305A); ITC; Q305A mutant): -9.8 ± 0.3 kcal/mol
CC(=O)[O][Ag]=[c]1n(C)ccn1CC([O-])c1ccccc1.[Na+] (centres unmarked)  fluorescence minimum (ACTA1 (Oryctolagus cuniculus, UniProt P68135); actin polymerization; 5 µM): ~12000 RFU
N=C(N)NCCC[C@H](NC(=O)[C@H](Cc1ccccc1)NC(=O)[C@@H](N)CO)C(=O)N[C@@H](CC(N)=O)C(=O)NCC(N)=O  maximal response (NPSR1 (Homo sapiens, UniProt Q6W5P4, N107I); cAMP accumulation, agonist; HEK293T; human receptor, unit not given; relative to: maximal assay window): 0.41
O=C1CC[C@H](N2Cc3cc(-c4cnn5ccc(NC6CCC(F)(F)CC6)nc45)ccc3C2=O)C(=O)N1  Dmax (Cereblon/Casein kinase I alpha (CSNK1A1/CRBN, Homo sapiens, UniProt P48729+Q96SW2); protein level, degrader, luciferase; MOLT-4): 0%
CC(=O)NCCN(CC(=O)NCCN(CC(=O)NCCN(CC(=O)NCCC(N)=O)C(=O)[C@@H](N)CCCCN)C(=O)[C@@H](N)Cc1ccccc1)C(=O)[C@@H](N)Cc1ccccc1  heat capacity change ΔCp (HIV-1 TAR RNA; concentration not given): -2.82 ± 0.15 kJ/mol/K
CCc1ccc2c(C)nc(NC3=NC(C)(C)C=C(C)N3)nc2c1  remaining activity (CD38 (Homo sapiens, UniProt P28907); hydrolase activity, fluorometric; 50 µM, together with: ε-NAD+ substrate; relative to: untreated): 50.7 ± 1.7%
COc1ccc(CCNC(=N)NCc2ccncc2)cc1  IC50 (CXCR4 (Homo sapiens, UniProt P61073); arrestin recruitment, DiscoverX): inactive
CCCCCC[N+](CCCCCC)(CCCCCC)CCCCCC  remaining current (Kcnk2 (Rattus norvegicus, UniProt Q920B6); ion current, blocker, inside-out patch clamp; Xenopus oocytes; 1 µM, together with: activating pH 5.0 jump; relative to: peak current): 50%
CC(=O)NCCN(CC(=O)NCCN(CC(=O)NCCN(CC(=O)NCCC(N)=O)C(=O)C[C@@H](N)CCCNC(=N)N)C(=O)C[C@@H](N)Cc1ccccc1)C(=O)C[C@@H](N)Cc1ccccc1  heat capacity change ΔCp (HIV-1 TAR RNA; concentration not given): -1.35 ± 0.16 kJ/mol/K
NC/C(=C\F)COc1cc(Cl)cc(-c2cc(=O)[nH]c(=S)n2CC(N)=O)c1  potency ratio (AOC3 (Homo sapiens, UniProt Q16853); enzyme activity, Amplex Red H2O2; relative to: PXS-4728 over compound): > 1000 fold

Repeated from above:
CC(=O)[O][Ag]=[c]1n(C)ccn1CC([O-])c1ccccc1.[Na+] (centres unmarked)  fluorescence minimum (ACTA1 (Oryctolagus cuniculus, UniProt P68135); actin polymerization; 5 µM): ~12000 RFU
